Assay results pooled from the literature.
Each line is one published result; not all experiments were run side by side. “And” joins repeats or separate records; there may be more than shown. ± marks the error that the study gave.
lasR: Transcriptional activator protein LasR (lasR, Pseudomonas aeruginosa, UniProt P25084)
KLRK1 with MICA: NKG2-D type II integral membrane protein, with MICA (KLRK1, Homo sapiens, UniProt P26718)
KCNQ3/KCNQ2: Voltage-gated potassium channel, KQT; KCNQ2(Kv7.2)/KCNQ3(Kv7.3) (KCNQ3/KCNQ2, Homo sapiens, UniProt O43525+O43526)
KLRK1 with ULBP6: NKG2-D type II integral membrane protein, with ULBP6 (KLRK1, Homo sapiens, UniProt P26718)

SMILES | target | test | test system | setting | how to read | endpoint | value
CCCCCCc1cn(CC(=O)N[C@H]2CCOC2=O)nn1 | lasR | reporter gene, agonist | Escherichia coli, DH5α pJN105L/pSC11 | 100 µM | relative to: OdDHL at same concentration | activation | 39%
COP(=O)(O)Oc1ccc([N+](=O)[O-])cc1 | Alkaline phosphatase PafA (pafA, Elizabethkingia meningoseptica, UniProt Q9KJX5, T79S) |  | Chryseobacterium meningosepticum | pH 8.0 | relative to: wild type over mutant kcat/KM | relative catalytic efficiency | 26
Cc1cccc([C@H](NC(=O)c2cnccc2-c2ccc(C(F)(F)F)cc2)C(=O)N(C)C)c1 | KLRK1 with MICA | ligand binding, inhibitor, TR-FRET | HEK293 expressing NKG2D and DAP10 | added: MICA-Alexa647 | relative to: positive control | maximum inhibition | 101%
CC(C)C[C@H](NC(=O)[C@@H](N)Cc1ccccc1)C(=O)O | Amyloid-beta precursor protein, Aβ40 (APP, Homo sapiens, UniProt P05067) | binding, ion mobility MS, item: Aβ trimer |  | concentration not given |  | trimer bound | 50 ± 20%
CCCCC/C=C\C/C=C\C/C=C\C/C=C\CCCC(=O)NC(CO)C(=O)O (stereo in doubt) | KCNQ3/KCNQ2 | GMAX, activator, two-electrode voltage clamp | Xenopus oocytes | 10 µM |  | increase in maximal conductance | ~50% and 53%
CN(C)C(=O)C(NC(=O)c1ccccc1-c1ccc(C(F)(F)F)cc1)c1cccc(C(F)(F)F)c1 (centres unmarked) | KLRK1 with ULBP6 | cellular TR-FRET displacement |  | pIC50 minus ChromLogD |  | LLE | 5 ± 0.9 , 1.4
Cc1ccc(-c2c(/C=C(\C#N)C(=O)NC(C)C)n(CCCO)c3ncnc(N)c23)cc1 | Ribosomal protein S6 kinase alpha-3, C-terminal kinase domain (Rps6ka3, Mus musculus, UniProt P18654, C436V) | kinase activity, inhibitor |  |  | relative to: C436V mutant over wild type | fold resistance | ~1000 fold
CNC(=O)C(NC(=O)c1ccccc1-c1ccc(C(F)(F)F)cc1)c1cccc(C(F)(F)F)c1 (centres unmarked) | KLRK1 with MICA | ligand binding, inhibitor, TR-FRET | HEK293 expressing NKG2D and DAP10 | added: MICA-Alexa647 | relative to: positive control | maximum inhibition | 68%
CCN(Cc1ccccc1)C(=O)CCc1nc(CN2CCN(C(=O)Cc3ccc(OC)c(OC)c3)CC2)no1 | KCNQ3/KCNQ2 | potassium current, opener, whole-cell patch clamp | CHO stable | 10 µM | relative to: control | current fold increase | 1.23 ± 0.04
CC[C@H](C)[C@H](NC(=O)[C@H](CCC(N)=O)NC(=O)[C@H](Cc1ccc(O)cc1)NC(=O)[C@H](CCC(N)=O)NC(=O)[C@@H]1CCCN1C(=O)[C@H](CCSC)NC(=O)[C@@H](N)Cc1ccc(O)cc1)C(=O)O | OGT (Homo sapiens, UniProt O15294) | enzyme activity, fluorescence activity |  |  |  | highest concentration without inhibition | > 100 µM
O=C(Cn1cc(-c2cc(F)cc(F)c2)nn1)N[C@H]1CCOC1=O | lasR | reporter gene, agonist | Escherichia coli, DH5α pJN105L/pSC11 | 100 µM | relative to: OdDHL at same concentration | activation | 0%
COCC1CCC2C1=CC1(C)C(=C(C(C)C)C3CCOC31)C(OC1OC3COC(C)(C)OC3C(O)C1O)C(O)C2C (centres unmarked) | 14-3-3 protein sigma, with TASK3 (SFN, Homo sapiens, UniProt P31947) | protein-protein interaction, stabilizer, fluorescence polarization |  | added: FITC-labelled TASK3 peptide |  | cooperativity factor | 100
COCCCN1CCc2c(Cc3ccc(Cl)cc3)[nH]c3c(OC(F)F)ccc(c23)C1=O | PDE4D (Homo sapiens, UniProt Q08499) | enzyme activity, inhibitor |  |  | relative to: PDE4D2 IC50 over PDE5A1 IC50 | selectivity ratio | 229
CN(C)C(=O)[C@@H](NC(=O)c1cnccc1-c1ccc(C(F)(F)F)cc1)c1cc(Cl)cc(C(F)(F)F)c1 | KLRK1 with ULBP6 | ligand binding, inhibitor, TR-FRET | HEK293 expressing NKG2D and DAP10 | added: ULBP6-AF647 | relative to: positive control | maximum inhibition | 102%
CC(C)C[C@@H](N)C(=O)NCC(=O)N[C@H](C)C(=O)N[C@H](CO)C(=O)N[C@H](Cc1c[nH]c2ccccc12)C(=O)N[C@H](Cc1c[nH]cn1)C(=O)N[C@H](CCCNC(=N)N)C(=O)N1CCC[C@@H]1C(=O)N[C@H](CC(=O)O)C(=O)N[C@H](CCCCN)C(=O)N[C@H](CCCCN)C(=O)N[C@H](CCCNC(=N)N)C(=O)NCCCCCC(=O)N[C@@H](CCCCN)C(=O)N[C@@H](CCCNC(=N)N)C(=O)N[C@@H](CCCCN)C(=O)N[C@H](C(=O)N[C@@H](CC(N)=O)C(=O)N[C@@H](CC(N)=O)C(=O)N[C@@H](CC(N)=O)C(=O)N1CCC[C@H]1C(=O)N[C@@H](CCCNC(=N)N)C(=O)N[C@H](C(=O)N[C@@H](CS)C(N)=O)[C@@H](C)O)[C@@H](C)O | CXCR4 (Homo sapiens, UniProt P61073, R30A) | antibody 12G5 binding |  | 200 nM, R30A mutant vs wild type |  | binding affinity change | increased
O=[N+]([O-])c1ccc(OP(=O)(O)O)cc1 | Alkaline phosphatase PafA (pafA, Elizabethkingia meningoseptica, UniProt Q9KJX5, R164A) |  | Chryseobacterium meningosepticum | pH 8.0 | relative to: wild type over mutant kcat/KM | relative catalytic efficiency | 12
COc1cc2c(cc1OC)-c1c(OC)c(OC)cc3c1[C@H](C2)N(C)CC3 | serotonin receptor-like protein (Schistosoma mansoni, UniProt A0A173FEI8) | inhibitor, GloSensor cAMP | HEK293 expressing target | concentration not given |  | cAMP generation | inhibited
